Results of several laboratories.
Each line is one published result; not all experiments were run side by side. Numbers after ± are the reported error.

SMILES | assay | system | conditions | scale | quantity | result
CC(=O)N[C@@H](CC(C)C)C(=O)N[C@H](C(=O)N[C@@H](Cc1ccccc1)C(=O)N[C@]1(C)CCCCCC/C=C/CCC[C@@](C)(C(=O)N[C@@H](C)C(=O)N[C@@H](C)C(=O)N[C@@H](C)C(=O)N[C@@H](C)C(=O)N[C@@H](C)C(=O)N[C@H](C)C(N)=O)NC(=O)[C@H](CC(C)C)NC(=O)[C@H](CCCCNC(=O)CCNC(=O)C[C@@H]2N=C(c3ccc(Cl)cc3)c3c(sc(C)c3C)-n3c(C)nnc32)NC(=O)[C@H](C)NC(=O)[C@H](Cc2c[nH]c3ccccc23)NC(=O)[C@H](Cc2ccc(O)cc2)NC(=O)[C@H](C)NC1=O)[C@@H](C)O | equilibrium dialysis | mouse plasma | 2 µM, 6 h |  | buffer chamber concentration | 24.9 nM
C[C@@H](O)[C@@H]1NC(=O)[C@@H](NC(=O)CCOCCOCCOCCOCCNC(=O)c2ccc(NN)nc2)CSSC[C@@H](C(=O)O)NC(=O)[C@H](Cc2c[nH]cn2)NC(=O)[C@H](CO)NC(=O)[C@H](Cc2ccccc2)NC(=O)[C@@H]2CCCN2C(=O)[C@H](CO)NC(=O)[C@@H]2CCCN2C1=O [technetium-99m labelled] |  | mouse HCT-116 xenograft, heart | intravenous, 37 MBq, postmortem after imaging |  | tissue uptake | 0.05 ± 0.01 %ID/g
N=C(N)NCCC[C@@H]1NC(=O)[C@H](CCCCNC(=O)CCC(NC(=S)Nc2ccc(CC3CN(CC(=O)O)CCN(CC(=O)O)CCN(CC(=O)O)CCN3CC(=O)O)cc2)C(=O)NCCCC[C@@H]2NC(=O)[C@@H](Cc3ccc(O)cc3)NC(=O)[C@H](CC(=O)O)NC(=O)CNC(=O)[C@H](CCCNC(=N)N)NC2=O)NC(=O)[C@@H](Cc2ccc(O)cc2)NC(=O)[C@H](CC(=O)O)NC(=O)CNC1=O (stereo partly drawn) [scandium-44 labelled] | PET imaging ROI | female athymic nude mice, U-87 MG xenograft, liver | intravenous, 0.5 h |  | tissue uptake | 1.73 ± 0.47 %ID/g
Cc1cc(O)cc(C)c1C[C@H](N)C(=O)N[C@H](C)C(=O)N[C@@H](Cc1ccccc1)C(=O)N[C@@H](CCCN)C(=O)NCCCCCC(=O)N[C@@H](CCCCNC(=O)CN1CCN(CC(=O)O)CCN(CC(=O)O)CCN(CC(=O)O)CC1)C(N)=O [indium-111 labelled] |  | saline, phosphate-buffered, n-octanol | pH 7.4 |  | logD | -3.5 ± 0.02
CCCCCCCCCCCCCCC(=O)N[C@@H](CCCCNC(=O)CN1CCN(CC(=O)O)CCN(CC(=O)O)CCN(CC(=O)O)CC1)C(=O)N[C@@H](CCC(=O)NCCCC[C@@H]1NC(=O)[C@@H](Cc2ccccc2)NC(=O)[C@H](CC(=O)O)NC(=O)CNC(=O)[C@H](CCCNC(=N)N)NC1=O)C(=O)NCCCC[C@@H]1NC(=O)[C@@H](Cc2ccccc2)NC(=O)[C@H](CC(=O)O)NC(=O)CNC(=O)[C@H](CCCNC(=N)N)NC1=O [indium-111 labelled] |  | female BALB/c nude mice, U-87 MG xenograft, tumour | intravenous, 24 h |  | tumour uptake | 5.12 ± 0.99 %ID/g
CC[C@H](C)[C@@H]([C@@H](CC(=O)N1CCC[C@H]1[C@H](OC)[C@@H](C)C(=O)N[C@H](C)[C@@H](O)c1ccccc1)OC)N(C)C(=O)[C@@H](NC(=O)[C@H](C(C)C)N(C)C(=O)OCc1ccc(NC(=O)[C@H](CCCNC(N)=O)NC(=O)[C@@H](NC(=O)CCCCCN2C(=O)CC(SC[C@H](NC(=O)[C@H](CC(=O)O)NC(=O)[C@H](Cc3ccc(O)cc3)NC(=O)[C@H](Cc3c[nH]c4ccccc34)NC(=O)[C@@H](N)CCCNC(=N)N)C(=O)O)C2=O)C(C)C)cc1)C(C)C (stereo partly drawn) |  | C57BL/6 mouse, healthy, spleen | intraperitoneal, 2.5 mg/kg, 6 h |  | concentration | not detected
CC(C)C[C@@H]1NC(=O)[C@H](CC(=O)O)NC(=O)CNC(=O)[C@H](CCCNC(=N)N)NC(=O)[C@H](Cc2ccccc2)NC(=O)[C@H](CCCCNC(=O)CCc2cn(CCCNC(=O)CN3CCN(CC(=O)O)CCN(CC(=O)O)CCN(CC(=O)O)CC3)nn2)N(C)C(=O)[C@H]2CCCN2C(=O)[C@H](Cc2ccccc2)NC(=O)[C@H](C)NC1=O |  | female CB17 SCID mice, tumour and spleen | intravenous, dose not given, 90 min, 177Lu-labelled | relative to: tumour over spleen | tissue-to-tissue ratio | 5.3 ± 5.3
CCCCCCCCCCCCCCCCCCCCCCCCCC(=O)O[C@H](CCCCCCCCCCCCCC)[C@@H](O)[C@H](CO[C@H]1O[C@H](CO)[C@H](O)[C@H](O)[C@H]1O)NC(=O)OCOC(=O)CCCCCn1cc(CCC(=O)N[C@@H](Cc2ccccc2)C(=O)N[C@@H](Cc2ccccc2)C(=O)N[C@@H](CCCNC(=N)N)C(=O)N[C@@H](CCCCN)C(=O)N[C@@H](CO)C(=O)N[C@H](C(=O)N[C@H](C(=O)N[C@@H](CC(N)=O)C(=O)N[C@@H](Cc2ccccc2)C(=O)N[C@@H](CCC(=O)O)C(=O)N[C@@H](CCCCN)C(=O)N[C@@H](CC(C)C)C(=O)O)[C@@H](C)CC)[C@@H](C)CC)nn1 | HPLC-ESI-MS/MS | aqueous ammonium acetate | 10 µg/mL, eight days, pH 9.0, 20 °C |  | α-GalCer released | 0.9%
CCCC[C@H](NC(=O)CN1CCC(NC(=O)CN2CCN(CC(N)=O)CCN(CC(N)=O)CCN(CC(N)=O)CC2)CC1)C(=O)N[C@H]1CC(=O)NCCCC[C@@H](C(N)=O)NC(=O)[C@H](Cc2c[nH]c3ccccc23)NC(=O)[C@H](CCCNC(=N)N)NC(=O)[C@@H](Cc2ccccc2)NC(=O)[C@H](Cc2c[nH]cn2)NC1=O [lead-203 labelled] | SPECT/CT SUVmean | C57BL/6J mice B16-F10 tumour-bearing, tumour | 2 h | relative to: amide over thiourea analogue | tumour uptake improvement | 3.9 fold
CC(C)C[C@@H]1NC(=O)[C@H](CC(=O)O)NC(=O)CNC(=O)[C@H](CCCNC(=N)N)NC(=O)[C@H](Cc2ccccc2)NC(=O)[C@H](CCCCNC(=O)CCc2cn(CCCNC(=O)CCC(C(=O)O)N3CCN(CC(=O)O)CCN(CC(=O)O)CCN(CC(=O)O)CC3)nn2)N(C)C(=O)[C@H]2CCCN2C(=O)[C@H](Cc2ccccc2)NC(=O)[C@H](C)NC1=O (stereo partly drawn) |  | female CB17 SCID mice, tumour and spleen | intravenous, dose not given, 90 min, 177Lu-labelled | relative to: tumour over spleen | tissue-to-tissue ratio | 4.6 ± 1.1
CC(C)C[C@H](NC(=O)[C@@H](N)Cc1ccccc1)C(=O)N[C@@H](C)C(=O)N[C@@H](CS)C(=O)N1CCC[C@H]1C(=O)N[C@@H](CCC(=O)O)C(=O)N[C@H](C(=O)N[C@@H](Cc1c[nH]cn1)C(=O)N[C@@H](CS)C(=O)N[C@H](C(=O)NCC(=O)N[C@@H](CO)C(=O)N[C@@H](Cc1c[nH]c2ccccc12)C(=O)N[C@@H](CCCCNC(=O)CN1CCN(CC(=O)O)CCN(CC(=O)O)CCN(CC(=O)O)CC1)C(N)=O)[C@@H](C)O)[C@@H](C)O [gallium-68 labelled] | gamma counting | C57BL/6J mice, B16-F10 tumour, tumour | intravenous, 3.7 MBq, 4 h |  | tumour uptake | 1.49 ± 0.06 %ID/g
CC(C)C[C@H](NC(=O)[C@@H]1CCCN1C(=O)[C@H](CCCCN)NC(=O)[C@@H](N)CO)C(=O)N1CCC[C@H]1C(=O)N[C@@H](CCC(=O)O)C(=O)N[C@H](C(=O)N[C@H](C(=O)N[C@@H](CC(=O)O)C(=O)N[C@@H](CCC(=O)O)C(=O)N[C@@H](Cc1ccc(O)cc1)C(=O)NCC(=O)NCCOCCOCCOCCOCCOCCOCCOCCOCCOCCOCCOCCOCCOCCOCCOCCOCCOCCOCCOCCOCCOCCOCCOCCOCCC(=O)N[C@@H](CCCCNC(=O)CC[C@H](C(=O)O)N1CCN(CC(=O)O)CCN(CC(=O)O)CC1)C(=O)N1CCN(CCCN(C)c2ccc3nccc(C(=O)NCC(=O)N4CC(F)(F)C[C@H]4C#N)c3c2)CC1)[C@@H](C)O)C(C)C [copper-64 labelled] | PET | NMRI nude mouse, HT-1080 hFAP xenograft, tumour | intravenous |  | time to maximum uptake | ≥ 10 min

For quick reference, copied from above:
SMILES | assay | system | conditions | scale | quantity | result
Cc1cc(O)cc(C)c1C[C@H](N)C(=O)N[C@H](C)C(=O)N[C@@H](Cc1ccccc1)C(=O)N[C@@H](CCCN)C(=O)NCCCCCC(=O)N[C@@H](CCCCNC(=O)CN1CCN(CC(=O)O)CCN(CC(=O)O)CCN(CC(=O)O)CC1)C(N)=O [indium-111 labelled] |  | saline, phosphate-buffered, n-octanol | pH 7.4 |  | logD | -3.5 ± 0.02
CCCCCCCCCCCCCCC(=O)N[C@@H](CCCCNC(=O)CN1CCN(CC(=O)O)CCN(CC(=O)O)CCN(CC(=O)O)CC1)C(=O)N[C@@H](CCC(=O)NCCCC[C@@H]1NC(=O)[C@@H](Cc2ccccc2)NC(=O)[C@H](CC(=O)O)NC(=O)CNC(=O)[C@H](CCCNC(=N)N)NC1=O)C(=O)NCCCC[C@@H]1NC(=O)[C@@H](Cc2ccccc2)NC(=O)[C@H](CC(=O)O)NC(=O)CNC(=O)[C@H](CCCNC(=N)N)NC1=O [indium-111 labelled] |  | female BALB/c nude mice, U-87 MG xenograft, tumour | intravenous, 24 h |  | tumour uptake | 5.12 ± 0.99 %ID/g
